Experimental data gathered from unrelated publications.
Lines come from different studies, so protocols differ. Numbers after ± are the reported error.
UCHL1: Ubiquitin carboxyl-terminal hydrolase isozyme L1 (UCHL1, Homo sapiens, UniProt P09936)
Chain of UniProt P09936 (whole entry, looked up): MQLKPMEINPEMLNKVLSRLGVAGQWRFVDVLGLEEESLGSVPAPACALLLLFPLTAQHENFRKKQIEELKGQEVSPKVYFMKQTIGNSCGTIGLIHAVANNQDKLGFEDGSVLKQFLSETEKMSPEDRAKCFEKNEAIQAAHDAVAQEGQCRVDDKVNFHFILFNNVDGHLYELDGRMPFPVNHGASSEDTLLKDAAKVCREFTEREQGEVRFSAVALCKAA

Structure (SMILES)	tested on	assay	setting	how to read	quantity	result
CCN1CCN(Cc2ccc(Nc3nc4nc(Oc5ccnc(NC(C)=O)c5)ncc4[nH]3)cc2C(F)(F)F)CC1	HepG2	cytotoxicity	48 h	–	EC50	> 20 µM
COC(=O)N[C@H](C(=O)N1CC2(CC2)C[C@H]1c1ncc(-c2ccc3c(c2)C(F)(F)c2cc(-c4ccc5nc([C@@H]6[C@H]7CC[C@H](C7)N6C(=O)[C@@H](NC(=O)OC)C(C)C)[nH]c5c4)ccc2-3)[nH]1)C(C)C	HepG2	Alamar Blue	48 h	–	TC50	> 25 µM
O=C(Nc1ccc2c(c1)OC(F)(F)O2)Nc1ccc(Cl)c(C(F)(F)F)c1	HepG2	–	24 h	–	CC50	10.5 µM
O=c1c(O)c(-c2ccc(O)cc2)oc2cc(O)cc(O)c12	HepG2	viability, CellTiter-Glo	–	–	highest non-cytotoxic concentration	> 200 µM
CCN1CCN(Cc2ccc(Nc3nc4cnc(Oc5ccnc(NC(C)=O)c5)nc4n3C)cc2C(F)(F)F)CC1	HepG2	cytotoxicity	48 h	–	EC50	6 ± 1 µM
CN(c1ccccc1C(=O)Nc1ccc(S(=O)(=O)N2CCN(c3cc(C(F)(F)F)cc(Cl)n3)CC2)cc1)S(C)(=O)=O	HepG2	–	100 µM, 24 h	–	viability	no effect
CC(=O)Nc1cc(Oc2ccc3nc(Nc4ccc(F)cc4F)n(C)c3c2)ccn1	HepG2	cytotoxicity	48 h	–	EC50	> 20 µM
COc1ccc(Nc2cnnc3cc(-c4ccc(S(=O)(=O)N5CCN(C)CC5)cc4)ccc23)cc1Cl	HepG2	cytotoxicity	–	–	TC50	> 1.9 µM
Nc1nccc(-c2c(-c3ccc(F)cc3)ncn2C2CCNCC2)n1	HepG2	cytotoxicity	PKIS HTS	–	pTC50	< 4
CCCCCCNc1nc(NC2CCN(C)CC2)c2cc(OC)c(OC)cc2n1	HepG2	–	72 h	reference: HepG2 CC50 over EC50	selectivity index	1
CC(C)c1ccc(NC(=O)CCc2nc(O)c3c4c(sc3n2)CCC4)cc1	HepG2	cytotoxicity, CellTiter-Glo	3 days	–	IC50	> 56 µM
NCC(=O)CCC(=O)O	HepG2	ATPlite	18 to 24 h, added: deferoxamine	–	CC50	> 1000 µM
C=CCNC(=O)C(C#N)=Cc1ccc(C(=O)O)cc1	UCHL1	covalent, intact protein LC-MS	12.5 µM	–	labelling	10.2%
COc1ccc(Nc2cnnc3cc(-c4cnc(N5CCN(C)CC5)nc4)ccc23)cc1Cl	HepG2	cytotoxicity	–	–	TC50	> 2.2 µM
CCN1CCN(Cc2ccc(Nc3nc4ccc(Oc5ccnc(NC(=O)C6CCN(C)CC6)c5)cc4[nH]3)cc2C(F)(F)F)CC1	HepG2	cytotoxicity	48 h	–	EC50	8.4 ± 1.2 µM
CN(C)c1ccc2cc(C(=O)NS(=O)(=O)c3ccccc3-c3ccccc3)oc2c1	HepG2	–	concentration not given	–	mitochondrial toxicity	negative
CN1CCN(c2ncc(-c3ccc4nncc(Nc5ncc(Cl)cn5)c4c3)cn2)CC1	HepG2	cytotoxicity	–	–	TC50	> 4.7 µM

Structure (SMILES)	tested on	assay	setting	how to read	quantity	result
O=C(Nc1ccncc1)c1cc([N+](=O)[O-])ccc1Cl	HepG2	–	72 h	reference: HepG2 CC50 over EC50	selectivity index	24
Cc1ccc(NC(=O)N2CCN(c3ccccc3F)CC2)c(C)c1	HepG2	cytotoxicity, CellTiter-Glo	3 days	–	IC50	> 56 µM
CCOC(=O)[C@@]12C[C@@H]1[C@@H](n1ccc3c(NC)nc(C#Cc4ccc(Cl)s4)nc31)[C@H](O)[C@@H]2O	HepG2	cell viability, CellTiter-Glo	30 µM, 72 h, unit not given	reference: puromycin 10 µM	maximum response	24
O=C(O)/C=C/c1ccccc1	HepG2	MTT	3.1 to 50 µg/mL, 48 h, 10% FBS	–	viability	> 90%
N#CC(=Cc1cccc2ccccc12)C(=O)NCc1ccccc1	UCHL1	covalent, intact protein LC-MS	12.5 µM	–	labelling	12.7%
CCN1CCN(Cc2ccc(Nc3nc4ccc(Oc5ccnc(NC(C)=O)c5)c(C)c4n3C)cc2C(F)(F)F)CC1	HepG2	cytotoxicity	48 h	–	EC50	4.5 ± 0.2 µM
CC(C(=O)Nc1cc(Cl)ccc1Cl)N1CCC(C(=O)NCc2ccccc2)CC1 (stereo not drawn)	HepG2	cytotoxicity, CellTiter-Glo	3 days	–	IC50	> 56 µM
CN(C)CCOc1ccc(-c2nc(-c3ccncc3)c(-c3ccc4c(c3)CC/C4=N\O)[nH]2)cc1	HepG2	cytotoxicity	PKIS HTS	–	pTC50	6.1
O=c1c(O)c(-c2ccc(O)c(O)c2)oc2cc(O)cc(O)c12	HepG2	viability, CellTiter-Glo	–	–	highest non-cytotoxic concentration	> 200 µM
COc1cnc(Nc2cnnc3ccc(-c4ccc(N5CCN(C)CC5)cc4)cc23)nc1	HepG2	cytotoxicity	–	–	TC50	> 4.7 µM
O=C(Cn1ccnc1[N+](=O)[O-])NCc1ccccc1	HepG2	Alamar Blue	48 h	–	TC50	> 200 µM
CCN1CCN(Cc2ccc(Nc3nc4ccc(Oc5ccnc(NC(C)=O)c5)c5c4n3CCC5)cc2C(F)(F)F)CC1	HepG2	cytotoxicity	48 h	–	EC50	14.3 ± 0.7 µM
COc1ccc(Nc2cnnc3cc(-c4ccc(S(=O)(=O)N5CCN(C)CC5)cc4)ccc23)nc1	HepG2	cytotoxicity	–	–	TC50	> 20 µM
CC(C)CCNC(=O)c1csc(-c2cccc(Cl)c2Cl)n1	HepG2	cytotoxicity, CellTiter-Glo	3 days	–	IC50	> 56 µM
CC(=O)OC[C@H]1O[C@@H]([S-])[C@H](OC(C)=O)[C@@H](OC(C)=O)[C@@H]1OC(C)=O.CCP(CC)CC.[Au+]	HepG2	–	72 h	reference: HepG2 CC50 over EC50	selectivity index	4
[131I-].[Na+]	HepG2	–	7 µCi/well, 24 h	–	cellular uptake	0.91 ± 0.04%

Repeated from above:
Structure (SMILES)	tested on	assay	setting	how to read	quantity	result
CCN1CCN(Cc2ccc(Nc3nc4ccc(Oc5ccnc(NC(C)=O)c5)c(C)c4n3C)cc2C(F)(F)F)CC1	HepG2	cytotoxicity	48 h	–	EC50	4.5 ± 0.2 µM
COC(=O)N[C@H](C(=O)N1CC2(CC2)C[C@H]1c1ncc(-c2ccc3c(c2)C(F)(F)c2cc(-c4ccc5nc([C@@H]6[C@H]7CC[C@H](C7)N6C(=O)[C@@H](NC(=O)OC)C(C)C)[nH]c5c4)ccc2-3)[nH]1)C(C)C	HepG2	Alamar Blue	48 h	–	TC50	> 25 µM
[131I-].[Na+]	HepG2	–	7 µCi/well, 24 h	–	cellular uptake	0.91 ± 0.04%
